Measured values from different studies.
Several values in a cell are separate wells, animals, samples, runs or records. Numbers after ± are the reported error.

CCCCCCCCCCCCCCCC(=O)N[C@@H](CCC(=O)NCCOCCOCCC(=O)NCCOCCOCCC(=O)NCCCC[C@H](NC(=O)[C@H](CC(=O)O)NC(=O)[C@H](CC(C)C)NC(=O)[C@H](Cc1ccc(O)cc1)NC(=O)[C@H](CCCCN)NC(=O)[C@H](CO)NC(=O)[C@H](Cc1ccc(O)cc1)NC(=O)[C@H](CC(=O)O)NC(=O)[C@H](CO)NC(=O)[C@@H](NC(=O)[C@H](Cc1ccccc1)NC(=O)[C@@H](NC(=O)CNC(=O)[C@H](CCC(N)=O)NC(=O)[C@@H](CO)NC(=O)[C@@H](N)Cc1c[nH]cn1)[C@@H](C)O)[C@@H](C)O)C(=O)N[C@@H](CCCNC(=N)N)C(=O)N[C@@H](CCCNC(=N)N)C(=O)N[C@@H](C)C(=O)N[C@@H](CCC(N)=O)C(=O)N[C@@H](CC(=O)O)C(=O)N[C@@H](Cc1ccccc1)C(=O)N[C@H](C(=O)N[C@@H](CCC(N)=O)C(=O)N[C@@H](Cc1c[nH]c2ccccc12)C(=O)N[C@@H](CC(C)C)C(=O)N[C@@H](CC(C)C)C(=O)N[C@@H](CC(N)=O)C(=O)N[C@H](C(=O)NCC(=O)NCC(=O)N1CCC[C@H]1C(=O)N[C@@H](CO)C(=O)N[C@@H](CO)C(=O)NCC(=O)N[C@@H](C)C(=O)N1CCC[C@H]1C(=O)N1CCC[C@H]1C(=O)N1CCC[C@H]1C(=O)N[C@@H](CO)C(N)=O)[C@@H](C)O)C(C)C)C(=O)O: “serum enzyme activity” 123 ± 11 U/L (refers to: CK; rhesus monkey, female; subcutaneous, 20 µg/kg once daily, 28 days).
CCc1nn(C)c2nc(-c3ccc(C(=O)O)cc3)nc(NCc3ccccc3)c12 has a body weight of 21.9 g and 22.7 g and 23.2 g (NSG mice; dose not given, day 2 of treatment).
For CC(=O)CCC1C(=O)NC(C(C)C)C(=O)NC(Cc2cc(O)cc(F)c2)C(=O)N2CCCC(N2)C(=O)OC(C(C)=CC=CC(=O)N2CCCCO2)CC=CC=CC(O)C(C)C1O (stereo not drawn), the total bilirubin was 2.9 µM (CD-1 mice, serum; oral, 5 mg/kg repeated, day 7).
Under “mean tissue distribution”, CSCC[C@H](N)C(=O)N[C@@H](C)C(=O)N[C@@H](Cc1c[nH]c2ccccc12)C(=O)N[C@@H](Cc1c[nH]cn1)C(=O)N[C@@H](CC(=O)O)C(=O)N[C@@H](CC(=O)O)C(=O)N[C@@H](CCC(=O)O)C(=O)N[C@@H](CCC(=O)O)C(=O)N[C@@H](Cc1ccccc1)C(=O)N[C@@H](C)C(=O)N[C@@H](CCCNC(=N)N)C(=O)N[C@@H](CCCNC(=N)N)C(=O)N[C@@H](CCCNC(=N)N)C(=O)N[C@@H](CCCNC(=N)N)C(=O)NCCCCCC(=O)NCCCCC(NC(=O)CCCCCNC(=O)[C@H](CCCNC(=N)N)NC(=O)[C@H](CCCNC(=N)N)NC(=O)[C@H](CCCNC(=N)N)NC(=O)[C@H](CCCNC(=N)N)NC(=O)[C@H](C)NC(=O)[C@H](Cc1ccccc1)NC(=O)[C@H](CCC(=O)O)NC(=O)[C@H](CCC(=O)O)NC(=O)[C@H](CC(=O)O)NC(=O)[C@H](CC(=O)O)NC(=O)[C@H](Cc1c[nH]cn1)NC(=O)[C@H](Cc1c[nH]c2ccccc12)NC(=O)[C@H](C)NC(=O)[C@@H](N)CCSC)C(=O)NCCCCC(NC(=O)C(CCCCNC(=O)CCCCCNC(=O)[C@H](CCCNC(=N)N)NC(=O)[C@H](CCCNC(=N)N)NC(=O)[C@H](CCCNC(=N)N)NC(=O)[C@H](CCCNC(=N)N)NC(=O)[C@H](C)NC(=O)[C@H](Cc1ccccc1)NC(=O)[C@H](CCC(=O)O)NC(=O)[C@H](CCC(=O)O)NC(=O)[C@H](CC(=O)O)NC(=O)[C@H](CC(=O)O)NC(=O)[C@H](Cc1c[nH]cn1)NC(=O)[C@H](Cc1c[nH]c2ccccc12)NC(=O)[C@H](C)NC(=O)[C@@H](N)CCSC)NC(=O)CCCCCNC(=O)[C@H](CCCNC(=N)N)NC(=O)[C@H](CCCNC(=N)N)NC(=O)[C@H](CCCNC(=N)N)NC(=O)[C@H](CCCNC(=N)N)NC(=O)[C@H](C)NC(=O)[C@H](Cc1ccccc1)NC(=O)[C@H](CCC(=O)O)NC(=O)[C@H](CCC(=O)O)NC(=O)[C@H](CC(=O)O)NC(=O)[C@H](CC(=O)O)NC(=O)[C@H](Cc1c[nH]cn1)NC(=O)[C@H](Cc1c[nH]c2ccccc12)NC(=O)[C@H](C)NC(=O)[C@@H](N)CCSC)C(N)=O (stereo partly drawn) is recorded as 0.65% (C57BL/6 mouse female, brain; dose not given, 6 h; relative to: total).
With CC1(C)C(=O)N(c2ccc(C#N)c(C(F)(F)F)c2)C(=S)N1c1ccc(C(=O)O)c(F)c1 the Tmax was 96 h (male human, plasma; oral, 160 mg, single dose, fasted).
The compound remaining of C#Cc1c(F)ccc2cc(O)cc(-c3ncc4c(N5CC6CCC(C5)N6C(=O)OC(C)OC(=O)[C@@H](N)C(C)C)nc(OC[C@@]56CCCN5C[C@H](F)C6)nc4c3F)c12 (stereo partly drawn) is reported as 93% (chemical stability; simulated intestinal fluid; 1 µM, 30 min).
N=C(N)NCCC[C@@H](NC(=O)[C@H](N)Cc1c[nH]c2ccccc12)C(=O)N[C@H](CCCCN)C(=O)N[C@H](Cc1c[nH]c2ccccc12)C(=O)N[C@H](CCCNC(=N)N)C(=O)N[C@H](CCCCN)C(=O)N[C@H](Cc1c[nH]c2ccccc12)C(=O)N[C@H](CCCNC(=N)N)C(=O)N[C@H](CCCCN)C(=O)N[C@H](Cc1c[nH]c2ccccc12)C(=O)N[C@H](CCCNC(=N)N)C(=O)N[C@H](CCCCN)C(N)=O gave a survival of 75% (mouse; intraperitoneal, 40 mg/kg single dose, day 6).
With CSCC[C@H](NC(=O)CNC(=O)[C@H](CCCCN)NC(=O)[C@H](CC(C)C)NC(=O)[C@@H]1CCCN1C(=O)[C@H](CO)NC(=O)[C@H](Cc1c[nH]cn1)NC(=O)[C@H](Cc1c[nH]c2ccccc12)NC(=O)[C@H](CCCNC(=N)N)NC(=O)[C@H](CC(C)C)NC(=O)[C@H](CCCNC(=N)N)NC(=O)[C@H](Cc1c[nH]c2ccccc12)NC(=O)[C@H](CS)NC(=O)CCCCCNC(=O)CN1CCN(CC(=O)O)CCN(CC(=O)O)CCN(CC(=O)O)CC1)C(=O)O [copper-64 labelled] the tissue uptake was 3.75 ± 0.34 %ID/g (PET; C57BL/6J mice, B16-F10 tumour, kidney; intravenous, 25 h).
The SUVmean of CC[C@H](C)[C@H](NC(=O)[C@H](CCCCN)NC(=O)CNC(=O)[C@H](CC(C)C)NC(=O)[C@H](Cc1ccccc1)NC(=O)[C@H](CCCCN)NC(=O)[C@H](CO)NC(=O)[C@H](Cc1ccccc1)NC(=O)[C@H](Cc1c[nH]c2ccccc12)NC(=O)[C@H](CCC(N)=O)NC(=O)[C@@H](NC(=O)[C@H](Cc1ccccc1)NC(=O)CCCCCNC(=O)CN1CCN(CC(=O)O)CCN(CC(=O)O)CCN(CC(=O)O)CC1)C(C)C)C(=O)N[C@@H](CCC(=O)O)C(=O)N1CCC[C@H]1C(=O)N[C@@H](CC(=O)O)C(=O)N[C@H](C(=O)N[C@@H](CO)C(=O)N[C@@H](CCC(N)=O)C(=O)N[C@H](C(=O)N[C@@H](CCC(N)=O)C(=O)N[C@@H](CC(=O)O)C(=O)N1CCC[C@H]1C(=O)N[C@@H](CC(N)=O)C(=O)N[C@@H](CC(=O)O)C(=O)N[C@@H](CCC(N)=O)C(=O)N[C@@H](Cc1ccc(O)cc1)C(=O)N[C@@H](CCC(=O)O)C(=O)N1CCC[C@H]1C(=O)N[C@@H](Cc1ccccc1)C(=O)O)C(C)C)C(C)C [copper-64 labelled] is reported as 0.67 SUV (dynamic PET; mouse, CT26 tumour, untreated, tumour; intravenous, 100 µCi/mouse, 70 s).
The creatinine of O=C1NC2(CC2)COc2ncc(F)cc2[C@H]2COCCN2c2ccn3ncc1c3n2 is reported as 26.4 ± 2.3 µmol/L (Sprague-Dawley rat, male, serum; oral, 2.5 mg/kg/day, 4 weeks daily, end of recovery period).
The body weight of COc1cnc2cccc(N3CCc4c(cc(Cn5ccnc5)cc4-c4cn(C)nc4C(F)(F)F)C3=O)c2c1 is reported as 22.4 g and 20.2 g and 21.8 g and 24.8 g and 23.4 g and 21.4 g and 22.7 g and 23.7 g (BALB/c nude mice, MV4-11 xenograft; intraperitoneal, 50 mg/kg, day 24).
The blood concentration of CC(C)N1CCCCC1C(=O)NC(Cc1ccc(-c2ccccc2)cc1)B(O)O (stereo not drawn) is reported as under 10 ng/mL (SCID mouse, P. falciparum model, blood; oral, 25 mg/kg, 24 h).
